Published values of several laboratories.
Lines come from different studies, so protocols differ. “And” joins repeats or separate records; there may be more than shown. ± marks the error that the study gave.

CC(C)(c1ccc(O)cc1)c1ccc(O)cc1: “early apoptotic cells” 6.19 ± 3.02% (HepG2 spheroids, dissociated; annexin V-FITC/PI flow cytometry; 0.01 µM, 96 h).
O=S(=O)(O)C(F)(F)C(F)(F)C(F)(F)C(F)(F)F — result for “LDH activity in medium”: 24.3 mU/mL (hTERT-RPTEC parental; LDH release; culture medium; concentration not given, 24 h, 96-well plate).
With O=c1ccc2ccccc2o1 the chance response was 0% (NHEK; cell count; concentration not given, 1 h, NRF2 oxidative stress panel).
C[C@H](NC(=O)[C@H](Cc1ccc(O)cc1)NC(=O)[C@H](CCCNC(=N)N)NC(=O)[C@H](CCCNC(=N)N)NC(=O)[C@H](CCCNC(=N)N)NC(=O)[C@@H](N)CCCNC(=N)N)C(=O)N[C@@H](CCCNC(=N)N)C(=O)N1CCC[C@H]1C(=O)N[C@@H](Cc1ccc(O)cc1)C(=O)N[C@@H](Cc1ccc(O)cc1)C(=O)N[C@@H](CCCNC(=N)N)C(=O)N[C@@H](CCCNC(=N)N)C(=O)N[C@@H](CCCNC(=N)N)C(=O)O gave a viability of 95.9 ± 1.32% (DF-1; LDH release; 5 µM, 1 h).
Oc1ccc(C2(c3ccc(O)cc3)c3ccccc3-c3ccccc32)cc1 gave a necrotic cells of 57% and 56.6% (HepG2 spheroids; annexin V-FITC/PI flow cytometry; 10 µM, 96 h).
With CC(C)(Oc1ccc(CCNC(=O)c2ccc(Cl)cc2)cc1)C(=O)O the IC10 was 1440 µM (HEK293-H PPARγ-UAS-bla cells; cell viability, IncuCyte imaging; 24 h, freely dissolved concentration).
Cc1cc(C(C)(C)c2ccc(O)c(C)c2)ccc1O has a viable cells of 43.5 ± 8.22% (HepG2 spheroids, dissociated; annexin V-FITC/PI flow cytometry; 0.10 µM, 96 h).
The viability of N=C(N)NCCC[C@H](NC(=O)[C@H](CCCNC(=N)N)NC(=O)[C@H](CCCNC(=N)N)NC(=O)[C@H](CCC(N)=O)NC(=O)[C@H](CCCNC(=N)N)NC(=O)[C@H](CCCNC(=N)N)NC(=O)[C@H](CCCCN)NC(=O)[C@H](CCCCN)NC(=O)[C@H](CCCNC(=N)N)NC(=O)CNC(=O)[C@@H](N)Cc1ccc(O)cc1)C(=O)O is reported as 97.2 ± 1.22% (DF-1; LDH release; 1 µM, 1 h).
CC[C@H](C)[C@H](NC(=O)[C@@H](N)CC(N)=O)C(=O)N1CCC[C@H]1C(=O)N1CCC[C@H]1C(=O)N[C@@H](CC(C)C)C(=O)N[C@H](C(=O)N[C@@H](CCC(N)=O)C(=O)N[C@H](C(=O)N1CCC[C@H]1C(=O)N[C@H](C(=O)N[C@H](C(=O)N[C@H](C(=O)N1CCC[C@H]1C(=O)N1CCC[C@H]1C(=O)N[C@@H](Cc1ccccc1)C(=O)N[C@@H](CC(C)C)C(=O)N[C@@H](CCC(N)=O)C(=O)N1CCC[C@H]1C(=O)N[C@@H](CCC(=O)O)C(=O)O)C(C)C)C(C)C)C(C)C)[C@@H](C)O)[C@@H](C)O: transport “no effect” (Caco-2 monolayers; 10 µM, 60 min, with: wortmannin 0.5 mM preincubated 30 min; relative to: untreated).
The CC50 of CCNC/C=C\CNCCCCNCCCCNC/C=C\CNCC is reported as over 2.5 µM (293T-ACE2; 40 (unit not given)).
The IC10 of CN(C)CCCC1(c2ccc(F)cc2)OCc2cc(C#N)ccc21 (stereo not drawn) is reported as 64.7 µM (SH-SY5Y; cell viability, propidium iodide staining; 24 h, nominal concentration).
CC(C)CC(=O)OC[C@H]1O[C@@](C#N)(c2ccc3c(N)ncnn23)[C@H](O)[C@@H]1O has a remaining compound of 0.81 ± 0.251% (dog hepatocytes; 5 µM, 15 min).
With O=C(O)C(F)(F)C(F)(F)C(F)(F)F the LDH release was 28.9 mU/mL and 14.7 mU/mL and 23.6 mU/mL and 30 mU/mL (hTERT-RPTEC parental; concentration not given, 96-well plate).
N=C(N)NCCC[C@H](NC(=O)[C@H](Cc1c[nH]c2ccccc12)NC(=O)[C@H](CCCNC(=N)N)NC(=O)[C@H](Cc1c[nH]c2ccccc12)NC(=O)[C@H](Cc1c[nH]c2ccccc12)NC(=O)[C@H](Cc1c[nH]c2ccccc12)NC(=O)[C@H](CCCNC(=N)N)NC(=O)[C@H](Cc1c[nH]c2ccccc12)NC(=O)[C@@H](N)CCCNC(=N)N)C(=O)N[C@@H](Cc1ccccc1)C(N)=O has an LC50 of 209 µM (HD11 macrophages).
With CNC(=O)Oc1cccc2ccccc12 the IC10 was 40.4 µM (SH-SY5Y; cell viability, propidium iodide staining; 24 h, nominal concentration).
The micronucleated cells of N#C[C@@]1(n2ccc(N)nc2=O)O[C@H](CO)[C@@H](O)[C@H]1O is reported as 0.22% (CHO; 62 µM, without S9).
For CC(C)[C@H](NC(=O)[C@H](CCCNC(=N)N)NC(=O)[C@H](Cc1c[nH]c2ccccc12)NC(=O)[C@H](CCCNC(=N)N)NC(=O)[C@H](Cc1c[nH]c2ccccc12)NC(=O)[C@H](Cc1c[nH]c2ccccc12)NC(=O)[C@H](Cc1c[nH]c2ccccc12)NC(=O)[C@H](CCCNC(=N)N)NC(=O)[C@H](Cc1c[nH]c2ccccc12)NC(=O)[C@H](CCCNC(=N)N)NC(=O)CN)C(N)=O, the LC50 was over 512 µM (HD11 macrophages).
For CNC(=O)Oc1cc(C)c(SC)c(C)c1, the toxic ratio was 0.49 (SH-SY5Y; 24 h, nominal concentration; relative to: baseline IC10 over IC10).
CC(C)(O)Cc1nc(N)[nH]c(=O)c1Br — result for “minimum cytotoxic concentration”: over 100 µM (HEL human embryonic lung fibroblasts; cell morphology alteration).
COc1cc2c(c(OC)c1OC)-c1ccc(OC)c(=O)cc1[C@@H](NC(C)=O)CC2 — result for “binucleated cells with micronuclei”: 5.3% (CHO-WBL; 8 µg/mL, 3 h, without S9).
CC(c1ccccc1)(c1ccc(O)cc1)c1ccc(O)cc1 — result for “late apoptotic cells”: 33.6 ± 12.4% (HepG2 spheroids; annexin V-FITC/PI flow cytometry; 1 µM, 96 h).
COc1cccc2c(N3CCc4ccccc4C3C)nc(Nc3ccc(F)cc3C)nc12 (stereo not drawn) has a CC50 of 19 µM (293T-ACE2; 40 (unit not given)).
O=[N+]([O-])c1ccc(-c2nn(-c3ccccc3)c3sc(NC(c4ccccc4O)P(=O)(Oc4ccccc4)Oc4ccccc4)nc23)cc1 (stereo not drawn) gave a viability of 100% (Vero cells; SRB; 0.01 µM, 10% fetal bovine serum).
C#CC[C@H](NC(=O)[C@H](CCCCN)NC(=O)[C@H](CCCCN)NC(=O)[C@H](Cc1c[nH]c2ccccc12)NC(=O)[C@H](CCCCN)NC(=O)[C@H](CCSC)NC(=O)[C@H](CCCNC(=N)N)NC(=O)[C@H](CCCNC(=N)N)NC(=O)[C@H](CC(N)=O)NC(=O)[C@H](CCC(N)=O)NC(=O)[C@H](Cc1ccccc1)NC(=O)[C@H](Cc1c[nH]c2ccccc12)NC(=O)[C@@H](NC(=O)[C@H](CCCCN)NC(=O)[C@@H](NC(=O)[C@H](CCC(N)=O)NC(=O)[C@@H](N)CCCNC(=N)N)[C@@H](C)CC)[C@@H](C)CC)C(=O)N[C@@H](CC(N)=O)C(=O)N[C@@H](Cc1c[nH]cn1)C(=O)N[C@H](C(=O)N[C@@H](CCSC)C(=O)N[C@@H](CC(C)C)C(=O)N[C@@H](CC(N)=O)C(=O)N[C@@H](Cc1c[nH]cn1)C(=O)N[C@@H](CC(C)C)C(=O)N[C@@H](Cc1ccc(O)cc1)C(=O)N[C@@H](C)C(=O)N[C@@H](CC(C)C)C(=O)N[C@@H](CO)C(=O)N[C@H](C(=O)N[C@@H](CCCCN)C(=O)N[C@@H](CC(=O)O)C(=O)NCC(=O)N[C@H](C(N)=O)C(C)C)[C@@H](C)CC)C(C)C — result for cell growth: “no effect” (SW480; 2.2 µM, three days).
O=S(=O)(c1ccc(O)cc1)c1ccc(O)cc1 gave a viable cells of 67.5 ± 15.8% (HepG2 spheroids, dissociated; annexin V-FITC/PI flow cytometry; 1 µM, 24 h).
CCCCc1nc(N)[nH]c(=O)c1Br: “minimum cytotoxic concentration” over 100 µM (HEL human embryonic lung fibroblasts; cell morphology alteration).
For CCCCCCCCCC(=O)N[C@@H](Cc1c[nH]c2ccccc12)C(=O)N[C@H](CC(N)=O)C(=O)N[C@@H](CC(=O)O)C(=O)N[C@@H]1C(=O)NCC(=O)N[C@@H](CCCN)C(=O)N[C@@H](CC(=O)O)C(=O)N[C@H](C)C(=O)N[C@@H](CC(=O)O)C(=O)NCC(=O)N[C@H](CO)C(=O)N[C@@H]([C@H](C)CC(=O)O)C(=O)N[C@@H](CC(=O)c2ccccc2N)C(=O)O[C@@H]1C, the LC50 was 103 µM (human erythrocytes; haemolysis).

Excerpt of the above:
C[C@H](NC(=O)[C@H](Cc1ccc(O)cc1)NC(=O)[C@H](CCCNC(=N)N)NC(=O)[C@H](CCCNC(=N)N)NC(=O)[C@H](CCCNC(=N)N)NC(=O)[C@@H](N)CCCNC(=N)N)C(=O)N[C@@H](CCCNC(=N)N)C(=O)N1CCC[C@H]1C(=O)N[C@@H](Cc1ccc(O)cc1)C(=O)N[C@@H](Cc1ccc(O)cc1)C(=O)N[C@@H](CCCNC(=N)N)C(=O)N[C@@H](CCCNC(=N)N)C(=O)N[C@@H](CCCNC(=N)N)C(=O)O gave a viability of 95.9 ± 1.32% (DF-1; LDH release; 5 µM, 1 h).
Oc1ccc(C2(c3ccc(O)cc3)c3ccccc3-c3ccccc32)cc1 gave a necrotic cells of 57% and 56.6% (HepG2 spheroids; annexin V-FITC/PI flow cytometry; 10 µM, 96 h).
